Experimental data collected from several papers.
± marks the error that the study gave.
Cell line: A549

| Compound | read-out | technique | time | notes | added | IC50 |
| --- | --- | --- | --- | --- | --- | --- |
| Cc1nccn1-c1nc(NN=Cc2c[nH]c3ccccc23)nc(Nc2ccc(Br)cc2)n1 | cell growth or viability | SRB | 5 days | – | – | 0.6 µM |
| N#Cc1c(F)c(F)c2nc(SCC3CCCO3)nc(N)c2c1F (stereo not shown) | cell growth or viability | MTT | 96 h | – | – | 26.4 µM |
| CC(=O)O[C@@H]1CC[C@@]2(C)[C@@H](CC[C@]3(C)[C@@H]2C(=O)C=C2[C@@H]4[C@@H](C)[C@H](C)CC[C@]4(C)CC[C@]23C)[C@@]1(C)C(=O)NCCNC(=O)CCCCCBr | cell growth or viability | MTT | 48 h | – | – | 9.73 µM |
| CC1=NNC(c2cn(CC(=O)Nc3nc(-c4ccccc4)cs3)nn2)C1 (stereo not shown) | cell growth or viability | MTT | 72 h | – | – | 0.213 µM |
| COCC12CCC(OC)C34C5CC6(O)C(O)C5C(O)(C(O)C6OC)C(CC13)C4N(C)C2 (stereo not shown) | cell growth or viability | MTT | – | – | – | 18.2 µM |
| COc1ccc2cc([C@H](C)C(=O)[O][Pt]([NH2])([NH2])([Cl])([Cl])[O]C(=O)[C@@H](C)c3ccc4cc(OC)ccc4c3)ccc2c1 | cell growth | MTT | 48 h | – | – | 0.14 ± 0.04 µM |
| COc1ccc(C([O-])=CC(=O)c2ccc(C(C)(C)C)cc2)cc1.[Cl-].[Ru+2].c1ccc(-c2cccc(-c3ccccn3)n2)nc1 | cell viability | resazurin | 72 h | dark | – | inactive |
| COc1ccc(/N=N/C(=S)N2CCOCC2)cc1 | cell growth or viability | resazurin | 48 h | – | – | > 50 µM |
| Cc1ccc2ccc3ccc(C)nc3c2n1.Cc1ccc2ccc3ccc(C)nc3c2n1.Clc1ccc(-c2cc(-c3ccccn3)nn2-c2ccccc2)cc1.[Cl-].[Cl-].[Ru+2] | cell growth or viability | – | 72 h | dark | – | 11.4 µM |
| COc1c(O)cc2oc3c(Cl)c(O)c(CC=C(C)C)c(O)c3c(=O)c2c1CC=C(C)C | cell growth or viability | – | 48 h | – | – | > 40 µM |
| COc1c(C)c(OS(=O)(=O)c2ccccc2)c(C)c2c1C(=O)CC(c1ccccc1)O2 (stereo not shown) | cell growth or viability | SRB | 72 h | – | – | 37.9 µM |
| COc1ccc(/C=C/C2=[N+]3C(=C(C=O)c4c(C)c(Br)c(/C=C/c5ccc(OC)cc5)n4[B-]3(F)F)C(C)=C2Br)cc1 | phototoxicity | resazurin | – | – | 645 nm light, 9.00 J/cm2 | 6.3 ± 2.7 µM |
| COCCOc1cc2ncnc(Nc3cccc(-c4cn(-c5ccccc5S(N)(=O)=O)nn4)c3)c2cc1OCCOC | cell proliferation | CCK-8 | 72 h | hypoxia | – | 16.3 µM |
| C[N+]1(C)CC[NH2+][Pt-2]1([OH])([Cl])([Cl])[O]C(=O)CCC(=O)O | cell growth or viability | MTT | 96 h | – | – | 145 µM |
| [Cl-].[Cl-].[Ru+2].c1ccc(-c2ccccn2)nc1.c1ccc(-c2ccccn2)nc1.c1ccc(-c2ccnc3c2ccc2c(-c4ccccc4)ccnc23)cc1 | – | resazurin | 72 h | – | indigo light 450 nm, 29.1 J/cm2 | 2.34 µM |
| COc1ccc(S(=O)(=O)Nc2ccc(CCCC(=O)O[C@H]3c4cc5c(cc4[C@@H](c4cc(OC)c(OC)c(OC)c4)[C@H]4C(=O)OC[C@@H]43)OCO5)cc2)cc1 | cell growth or viability | CCK-8 | 24 h | – | – | 4.04 µM |

Some of these lines once more:
| Compound | read-out | technique | time | notes | added | IC50 |
| --- | --- | --- | --- | --- | --- | --- |
| N#Cc1c(F)c(F)c2nc(SCC3CCCO3)nc(N)c2c1F (stereo not shown) | cell growth or viability | MTT | 96 h | – | – | 26.4 µM |
| CC(=O)O[C@@H]1CC[C@@]2(C)[C@@H](CC[C@]3(C)[C@@H]2C(=O)C=C2[C@@H]4[C@@H](C)[C@H](C)CC[C@]4(C)CC[C@]23C)[C@@]1(C)C(=O)NCCNC(=O)CCCCCBr | cell growth or viability | MTT | 48 h | – | – | 9.73 µM |
| CC1=NNC(c2cn(CC(=O)Nc3nc(-c4ccccc4)cs3)nn2)C1 (stereo not shown) | cell growth or viability | MTT | 72 h | – | – | 0.213 µM |
